# Measured values gathered from unrelated publications.
# A part holds a random share of what one study measured.

# Block 1
# Target: RING finger protein unkempt homolog, zinc fingers 1-6, GST-SBP tag (UNK, Homo sapiens, UniProt Q9C0B0, residues 30-357)
# Method: RNA Bind-n-Seq
# Form: RNA
# Matrix: in vitro
# Tested at: not given
# Setting: RNA with constant flanks, human-mouse chimeric sites, ends assumed
# Relative to: input RNA pool
# Direction: higher = stronger binding
# Target sequence (chain): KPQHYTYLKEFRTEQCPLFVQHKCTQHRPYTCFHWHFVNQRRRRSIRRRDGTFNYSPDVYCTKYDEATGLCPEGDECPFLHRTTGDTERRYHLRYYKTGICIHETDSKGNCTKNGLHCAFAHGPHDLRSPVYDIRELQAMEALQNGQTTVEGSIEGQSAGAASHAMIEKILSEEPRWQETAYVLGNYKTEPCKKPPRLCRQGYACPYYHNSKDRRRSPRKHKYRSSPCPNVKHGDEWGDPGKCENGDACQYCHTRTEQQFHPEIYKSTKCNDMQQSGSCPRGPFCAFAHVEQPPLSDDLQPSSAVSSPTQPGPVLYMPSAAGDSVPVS
Strand,bound/input enrichment [ratio]
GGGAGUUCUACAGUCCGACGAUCAAUUUCCUGUCAUACUUUGUAGCAAGACACAUCAGACUUACAGAGCACCUGGCCACAUUCUAGGUUUGUGUUAUUUCUCAGCUAUGGAUAUGAUCAAAGAGUGAAAAUGCUUAACUAAUGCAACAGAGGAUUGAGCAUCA,0.189
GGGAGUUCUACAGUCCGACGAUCUCUGAGGUACCACUGAAGAGACCUUAAAAGAAUCAUUUUGACGGCUCGUUCGUGCAAGAAUAGUCACUGAUCGGGAAACUGGUUCUUCCAAAGGGUUUGGUUUUGUAGACUUUAAUAGUGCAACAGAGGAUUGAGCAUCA,0.672
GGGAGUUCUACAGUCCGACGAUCUGGCGCCUGCGCUCCCCACUCGUGUUUUUAAGUGUAUUUUUAUAAGACAUGUGUAUUUACAAUUGAGCUUUUGUUACAUAAUGCUGAAAACAUCUCUGAGAUUAUGAAAAAUGUUUCAAUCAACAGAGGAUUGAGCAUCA,0.133
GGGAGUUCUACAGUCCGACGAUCGUGUCCUUUCAACUUAAUAAAUCACUGAGGCAUCUCUACUGUUCUGUGAGCAUCAGGACUGUAGCGCUGUGUCACCACAGAUGAGAACAGAAGCAGCCUUUCUGUGGAGGGUGGGAAUGACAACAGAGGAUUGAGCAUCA,0.308
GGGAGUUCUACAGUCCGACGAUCGACUUGGGACCGUCCUGGGCUAGUACAAAUAGCGGCAGUGGAGGCUCGAGAGGAAAGUUUGUUAGUGGAGGCAGUGGUAGAGGCCGUCAUGUACGGUCCUUUACUCGUAAAAAUCCUUCUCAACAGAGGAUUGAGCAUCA,0.297
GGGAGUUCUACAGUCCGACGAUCAGUGUGCAGGAAUUCAUGACCUUCACGAGUCAACUGAUUGUGGAACGCUCGGGGAAAGGCAGCAGAGCUUCUGUCAAAGAACAAGAGUAUCUUUGCCAUGUCUACGUCCGGAGCGACAGUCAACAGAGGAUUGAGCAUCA,0.0898
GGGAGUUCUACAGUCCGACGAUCACCUCCCAGGCCUGGGACACCCCACCCCCGCUUUUUGGAAAGUUUUUGGCUUUUUUUUUCCUUCCCCAUACAAAGUGAUUACAGUUUCCCCCGCAAGGGUCUAUCGAAGGGCUUGACGGACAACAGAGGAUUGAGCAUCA,0.526
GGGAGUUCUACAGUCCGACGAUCAACGUGGAGUUGAGUUCCUUGGCCCGGCUUCCCAGCUUGAAUAAACUCCGGAAGUUGGAGCUUAGUGAUAAUAUAAUUUCUGGAGGCUUGGAAGUCCUGGCAGAGAAAUGUCCAAAUCUUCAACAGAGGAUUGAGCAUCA,4.16
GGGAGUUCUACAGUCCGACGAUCGAUCCACAGUGGUCUGAGGAACAGCUGAUUGCUGCAAAAUUCUGUUUUGCUGGCCUUGUUAUAGGGCAGACUGAAGUGGACAUCAUGAGUCAUGCUACACAAGCUAUUUUUGAAAUUCUGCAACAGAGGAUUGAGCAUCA,0.205
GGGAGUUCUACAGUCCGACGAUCCUAAUCCCCUUUACUGCUCCCCCACUUCUCAUGGUAAUAACAAAGUCUUAUAUCCCCGUCCUAGCUUUCACUCAGAUGGCUUAUGGAGCCGGUUUCCUAUCUUUCUUGGGAGGGAUCAGACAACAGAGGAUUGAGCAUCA,0.536
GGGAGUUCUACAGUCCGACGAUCCUUCGGAAAAAAAAAUUACCUUUUCUGACAGUGCUUUCCCUCCCAUAGAUCCACGUUCAAGCUCAAAGAGCAAAGGCUUUGCACGGAGCUCAAACAUCUGAUGAAGAAAGAUUUCUGAGACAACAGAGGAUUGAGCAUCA,0.349

# Block 2
# Target: Sal-like protein 4, full length isoform B (SALL4, Homo sapiens, UniProt Q9UJQ4-2, residues 1-616)
# Method: universal PBM
# Form: double-stranded DNA, one strand shown
# Matrix: in vitro
# Tested at: not given
# Setting: 8-mer, flanks averaged, mean of replicates
# Direction: higher = stronger binding
# Target sequence (chain): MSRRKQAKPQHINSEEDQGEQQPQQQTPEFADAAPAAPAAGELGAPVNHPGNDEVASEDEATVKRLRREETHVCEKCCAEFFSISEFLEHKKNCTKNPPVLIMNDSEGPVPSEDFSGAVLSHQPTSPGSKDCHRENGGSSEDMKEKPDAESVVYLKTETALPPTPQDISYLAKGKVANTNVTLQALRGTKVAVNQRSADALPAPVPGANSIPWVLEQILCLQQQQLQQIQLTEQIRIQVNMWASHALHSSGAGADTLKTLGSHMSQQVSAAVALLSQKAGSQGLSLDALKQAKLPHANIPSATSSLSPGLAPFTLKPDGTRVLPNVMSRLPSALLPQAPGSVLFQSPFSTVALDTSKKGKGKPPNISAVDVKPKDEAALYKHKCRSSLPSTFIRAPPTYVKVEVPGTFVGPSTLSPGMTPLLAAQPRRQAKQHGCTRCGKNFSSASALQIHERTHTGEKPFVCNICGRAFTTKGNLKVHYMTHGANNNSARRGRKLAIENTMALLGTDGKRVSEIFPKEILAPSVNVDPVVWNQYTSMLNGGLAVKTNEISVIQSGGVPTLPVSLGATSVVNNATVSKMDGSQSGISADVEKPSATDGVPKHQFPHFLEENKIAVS
Strand,E-score
CGGAATGC,-0.222
AAACAACA,0.111
ACAGTGGC,-0.165
AGGTAGTA,0.164
AGTAGAAA,0.0756
GGGTGGTA,-0.0993
AAAGCAGG,-0.0377
AACTGCTC,-0.0776
GATCACTA,0.0193
CGATTAGA,0.0758
CGCCCCAC,-0.29
CACCGATG,-0.0262
CGCGCGAG,-0.245
GGCGAGAA,-0.062
GAAAGAAC,-0.00436
ACATTCTC,0.101
AGCGTGAT,-0.0818
ATGCACAC,0.11

# Block 3
# Target: Fragile X messenger ribonucleoprotein 1, C-terminal low-complexity region (Fmr1, Mus musculus, UniProt P35922)
# Method: RNA Bind-n-Seq
# Form: RNA
# Matrix: in vitro
# Tested at: 200 nM
# Setting: whole 134-nt RNA, ends assumed
# With: 150 mM LiCl
# Relative to: input library
# Direction: higher = stronger binding
# Each molecule: 7-deaza-guanosine replaces G
Strand,log2 enrichment
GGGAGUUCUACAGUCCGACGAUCACCAUGCAGGUGGGCAUCUUUGGGAAGUGGGGCAAGGGGGGGAUAGGGAGGGGGGUAACACUUUGGGAACAGGUGGAAACAGGUCGUUUCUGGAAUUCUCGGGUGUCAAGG,1.1
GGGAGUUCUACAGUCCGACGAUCCCUCAAGUCCUGUGCUACACAUCGUAUGUACCGAAUCGGUGGGUGGGGUGGGAAAGUAUUAUGUUACGCCGUUCGGAUCUGCACUUCCAGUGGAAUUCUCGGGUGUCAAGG,-0.559
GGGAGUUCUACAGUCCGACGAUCUUGUGAGAGCCACAGGAAAAGCAAGAAGGAGAAGAAGAAAAAGAAAAAGAGGAAACACAAGAAAGAGAAGAAGAAGAAAGACAAAGAGCAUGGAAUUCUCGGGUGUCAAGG,0.738
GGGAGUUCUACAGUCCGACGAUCAAGUCCUGUGCUACACAUCGUAUGUACCGAAUCGGGGUUUGGGGUUUGGGGUUUGGAAAGUAUUAUGUUACGCCGUUCGGAUCUGCACUUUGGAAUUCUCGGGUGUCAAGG,-1.66
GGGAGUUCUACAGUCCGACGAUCUGGCCCUGGUGGCAUGCGAGGAGGAAGAGGUGGCCUCAUGGAUCGUGGUGGUCCCGGUGGAAUGUUCAGAGGUGGCCGUGGUGGAGACAGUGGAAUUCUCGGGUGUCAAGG,-0.38
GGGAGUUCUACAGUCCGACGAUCAGUCCUGUGCUACACAUCGUAUGUACCGAAUCGGGGAAAAAGGGGAGGGGAAAGGGGAAAGUAUUAUGUUACGCCGUUCGGAUCUGCACUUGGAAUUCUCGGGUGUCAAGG,0.144
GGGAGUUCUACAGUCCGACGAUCACCAUGCAGGUGGGCAUCUUUGGGAAGUGGGGCAAGGGGGGGAUAUGGAGGGGGGUAACACUUUGGGAACAGGUGGUCCCAGGUCGUUUCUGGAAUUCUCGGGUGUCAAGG,1.25
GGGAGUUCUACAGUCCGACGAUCGUCCUGUGCUACACAUCGUAUGUACCGAAUCGGUUUUUGGAAAAAAAGGAAAAAAAGGAAAGUAUUAUGUUACGCCGUUCGGAUCUGCACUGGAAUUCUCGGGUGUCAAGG,-2.1
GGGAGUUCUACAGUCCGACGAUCCUGUGCUACACAUCGUAUGUACCGAAUCGGGGCCCCCCCGGCCCCCCCGGGCCCCCCCGGGAAAGUAUUAUGUUACGCCGUUCGGAUCUGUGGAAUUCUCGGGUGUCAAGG,0.0964
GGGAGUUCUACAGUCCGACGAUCCAAGUCCUGUGCUACACAUCGUAUGUACCGAAUCGGGUGGGAGGGUUUUUUUGGGAAAGUAUUAUGUUACGCCGUUCGGAUCUGCACUUCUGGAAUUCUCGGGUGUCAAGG,-0.554
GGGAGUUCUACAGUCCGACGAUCCACAGACAACACGCACCCACACAGACACAUAGGGAAGGGGUUGGGAUGGGGACAGGGUGCACAGCAGGGCGGGGUAGGACCCCAGCCCCUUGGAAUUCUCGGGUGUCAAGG,0.484

# Block 4
# Target: human cyclin B2
# Observed: peptide binding
# Method: yeast competitive growth sequencing
# Form: peptide
# Organism: Saccharomyces cerevisiae
# Strain: cyclin B2-Cln2 fusion
# Tested at: concentration not given
# Relative to: Cln2 fusion control
# Direction: direction not given
Molecule,binding enrichment score
KLLPRKLQFFCDP,0.205
REPARRLFLFGEE,0.186
MDASRQLMLNEEQ,0.0702

# Block 5
# Target: Histone acetyltransferase KAT6A, both winged helices, GST fusion (KAT6A, Homo sapiens, UniProt Q92794, residues 1-181)
# Method: protein binding microarray
# Form: double-stranded DNA, one strand shown
# Matrix: in vitro
# Tested at: not given
# Setting: 8-mer, flanks averaged, mean of 2 arrays, mostly near background
# Relative to: not given
# Direction: higher = stronger binding
# Construct (chain): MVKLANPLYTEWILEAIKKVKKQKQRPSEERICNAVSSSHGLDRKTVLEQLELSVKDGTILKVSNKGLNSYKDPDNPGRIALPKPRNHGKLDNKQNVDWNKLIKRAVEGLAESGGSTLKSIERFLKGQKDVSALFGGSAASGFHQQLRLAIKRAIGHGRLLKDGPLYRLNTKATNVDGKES
Strand,E-score
ACCTAATC,-0.127
GCAGAGCC,0.0597
ATGAAACA,0.0677
ATTATCTG,-0.157
AAGGTCTA,-0.074
ACCCGAAA,0.115
CTAGGCGC,0.24
AAGTCGCT,-0.0146
AGCGTGAC,0.145
ACATAAAA,-0.137
GTAGGGCA,-0.0797
CTACACTA,-0.227
ACTGCAAA,-0.169
ACTATCTG,-0.205
AGAACGCT,-0.00937
GCCGTAAA,0.311
TATCGTCA,0.0519
TACGTCTA,-0.11
AAGTGTGT,-0.127
AATGTAGG,-0.182

# Other studies, line by line
Molecule,target,assay,test system,conditions,how to read,measurement,result
"PhoQ, residues 284 288 289 292 302 303 SMMNNA","PhoP, residues 12 14 15 18 19 HEGLL (Escherichia coli, UniProt P23836)","Sort-seq, measured: YFP reporter",E. coli,"PhoQ-PhoP variant library, with: 10 µM Mg2+","relative to: high Mg2+ state, higher = stronger signaling",fold induction,4.22

# Excerpt of the above (block 5):
Strand,E-score
TATCGTCA,0.0519
GCAGAGCC,0.0597
GCCGTAAA,0.311
AGCGTGAC,0.145
ACATAAAA,-0.137
